Published values of several laboratories.
A part holds a random share of what one study measured.

Study 1
Target: Histone acetyltransferase KAT6A, winged helix 1, GST fusion (KAT6A, Homo sapiens, UniProt Q92794, residues 1-85)
Method: protein binding microarray
Form: double-stranded DNA, one strand shown
Matrix: in vitro
Concentration: not given
Setting: 8-mer, flanks averaged, mean of 2 arrays, mostly near background
Baseline: not given
Reading: higher = stronger binding
Residues (chain): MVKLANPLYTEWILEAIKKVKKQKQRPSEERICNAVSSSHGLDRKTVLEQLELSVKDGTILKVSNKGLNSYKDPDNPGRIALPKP
With `ATTCCCCA` the E-score was -0.234.
For `AGAGCGTA`, the E-score was 0.271.
With `CGGCGATC` the E-score was 0.392.
`AAGGCGCA` has an E-score of 0.232.
With `CTTTTTCC` the E-score was 0.0425.
With `TCCCAAGA` the E-score was -0.216.
For `ACCGTCGA`, the E-score was 0.0515.
`ACTTGTAT` gave an E-score of -0.177.

Study 2
Target: Fragile X messenger ribonucleoprotein 1, C-terminal low-complexity region (Fmr1, Mus musculus, UniProt P35922)
Method: RNA Bind-n-Seq
Form: RNA
Matrix: in vitro
Concentration: 200 nM
Setting: whole 134-nt RNA, ends assumed
Together with: 150 mM KCl
Baseline: input library
Reading: higher = stronger binding
`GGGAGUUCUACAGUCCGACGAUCCUGUGCUACACAUCGUAUGUACCGAAUCGGUUUUUUUGGGGUUUUUUUGGGGUUUUUUUGGGAAAGUAUUAUGUUACGCCGUUCGGAUCUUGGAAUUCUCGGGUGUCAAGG` gave a log2 enrichment of -0.226.
With `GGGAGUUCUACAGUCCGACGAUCUAACUUUAGAGGAGGAUCUGAUGGAUAUGGCAGUGGACGUGGAUUUGGGGAUGGCUAUAAUGGGUAUUGAGGAGGACCUGGAGGUGGCAAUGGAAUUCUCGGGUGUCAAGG` the log2 enrichment was 0.269.
The log2 enrichment of `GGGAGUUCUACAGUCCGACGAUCCCUGUGCUACACAUCGUAUGUACCGAAUCAAACCCCCCCAAACCCCCCCAAAUUUUUAAAAAAGUAUUAUGUUACGCCGUUCGGAUCUGCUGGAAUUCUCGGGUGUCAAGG` is reported as -0.09.
`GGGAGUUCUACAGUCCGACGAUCAGUCCUGUGCUACACAUCGUAUGUACCGAAUCAAAUUUUUAAAUUUUUAAACCCAAAAAAGUAUUAUGUUACGCCGUUCGGAUCUGCACUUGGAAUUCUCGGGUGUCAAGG` has a log2 enrichment of 0.145.
For `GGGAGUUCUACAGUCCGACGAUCUAACUUUAGAGGAGGAUCUGAUGGAUAUGGCAGUGGACGUGGAUUUGGGGAUGGCUAUAAUGGGUGUGGAGGAGGACCUGGAGGUGGCAAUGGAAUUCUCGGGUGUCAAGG`, the log2 enrichment was 0.26.

Study 3
Target: Sal-like protein 4, full length isoform B (SALL4, Homo sapiens, UniProt Q9UJQ4-2, residues 1-616)
Method: universal PBM
Form: double-stranded DNA, one strand shown
Matrix: in vitro
Concentration: not given
Setting: 8-mer, flanks averaged, mean of replicates
Reading: higher = stronger binding
The E-score of `AGCGACTG` is reported as -0.0543.
`CACCTGCG` gave an E-score of -0.26.
`AGCGGTAA` gave an E-score of 0.00351.
`GCGATCGA` has an E-score of -0.154.
For `AGGTCATG`, the E-score was -0.116.
The E-score of `ACTTTCGG` is reported as -0.107.

Mixed results
`PhoQ, residues 284 288 289 292 302 303 DDMDFR` gave a fold induction of 0.809 (PhoP, residues 12 14 15 18 19 QWHVF (Escherichia coli, UniProt P23836); Sort-seq, refers to: YFP reporter; E. coli; PhoQ-PhoP variant library, together with: 10 µM Mg2+; baseline: high Mg2+ state, higher = stronger signaling).
